Assay results collected from several papers.
Parts stem from different laboratories: compare values within a part only.

Block 1
Target: ATP-dependent RNA helicase DDX3X, helicase core (DDX3X, Homo sapiens, UniProt O00571, residues 132-607)
Chain of UniProt O00571 (132-607, looked up): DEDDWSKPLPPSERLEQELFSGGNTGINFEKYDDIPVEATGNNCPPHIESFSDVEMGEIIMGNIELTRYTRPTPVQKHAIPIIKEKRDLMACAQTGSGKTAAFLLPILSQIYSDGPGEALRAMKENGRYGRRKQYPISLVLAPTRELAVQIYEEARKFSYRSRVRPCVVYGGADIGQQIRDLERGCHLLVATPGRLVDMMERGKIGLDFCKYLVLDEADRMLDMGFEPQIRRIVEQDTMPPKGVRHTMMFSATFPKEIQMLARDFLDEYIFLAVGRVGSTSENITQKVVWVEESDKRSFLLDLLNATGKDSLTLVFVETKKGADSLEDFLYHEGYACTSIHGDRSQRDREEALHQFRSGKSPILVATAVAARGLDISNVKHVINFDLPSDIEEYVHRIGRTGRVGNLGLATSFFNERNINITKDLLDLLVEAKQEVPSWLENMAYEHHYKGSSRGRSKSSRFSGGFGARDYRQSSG
Technique: RNA Bind-n-Seq
Molecule type: RNA
Sample: in vitro
Concentration: 90 pmol
Setting: 4-mer, random 30-nt RNA, single round
Together with: 3 µM DMDA-PatA, 2 mM ADP, 2 mM phosphate
Relative to: input library
Direction: higher = stronger binding
Measurement: 4-mer enrichment
AAGC: 0.984 fold
UCGU: 0.915 fold
AUUA: 1.01 fold
GCAU: 0.969 fold
GUUU: 1.13 fold
AAAU: 1.12 fold
GACG: 0.923 fold
CAAC: 0.973 fold
GGUU: 0.982 fold
GUUG: 1.08 fold
CUGU: 0.823 fold
CGAA: 1 fold
GAGG: 1.21 fold
AGAU: 0.929 fold
CUCG: 0.831 fold
UAUG: 1 fold
AGGG: 1.24 fold
UCAU: 0.909 fold
UGAC: 0.827 fold

Block 2
Target: Histone acetyltransferase KAT6A, winged helix 1, GST fusion (KAT6A, Homo sapiens, UniProt Q92794, residues 1-85)
Technique: protein binding microarray
Molecule type: double-stranded DNA, one strand shown
Sample: in vitro
Concentration: not given
Setting: 8-mer, flanks averaged, mean of 2 arrays, mostly near background
Relative to: not given
Direction: higher = stronger binding
Measurement: E-score
Target sequence (chain): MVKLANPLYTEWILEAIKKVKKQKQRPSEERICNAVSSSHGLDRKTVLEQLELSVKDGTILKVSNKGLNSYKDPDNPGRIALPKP
AGGAGCCT: -0.107
AACCGCGC: 0.354
ACGTCAAG: -0.124
ACGAAAGC: 0.0481
AAAACGAC: -0.0173
ACAACCAT: -0.114
ATCCCGCG: 0.426
CAAGGATA: -0.155
ACTGGTTC: -0.0317
AACTTACT: -0.171
AGCCGGAG: 0.173
ACTCGGAT: 0.0737
AGCGTGTG: 0.111
GCCATATA: 0.116
CTGCACGA: -0.222
AACTTGCA: -0.196
CCGACGAG: 0.0712

Block 3
Target: RNA binding protein fox-1 homolog 2, RRM domain, GST-SBP tag (RBFOX2, Homo sapiens, UniProt O43251-10, residues 100-194)
Technique: RNA Bind-n-Seq
Molecule type: RNA
Sample: in vitro
Concentration: 365 nM
Setting: natural RNA segment, single round, ends assumed
Relative to: no-protein control
Direction: higher = stronger binding
Measurement: RBNS enrichment (R)
Shared flanks, not repeated: GGGAGUUCUACAGUCCGACGAUC … UGGAAUUCUCGGGUGCCAA
Target sequence (chain): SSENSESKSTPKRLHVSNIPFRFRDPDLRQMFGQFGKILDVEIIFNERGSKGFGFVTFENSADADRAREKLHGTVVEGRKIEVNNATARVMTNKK
UUUGUUCUAAAUAUCAACUAGCGCAAGUGAAUACUGAAGAUUUCUUAGUCAGUUUUUAGGGGAUUUUCGGGGAGGGGAAAUAGGUAAUGUAUGGAGCAUUUUCACUUCUA: 2.92
AGUUACCUUCUGGGCAAAGGCUGCCUUCCCACCCUUCCUUUCACGGCACCACACUACAUCCCCAUGCCCCUGUGGAAGUCUGUUACUGCAGCACUGUGCCUGCCAGAGUU: 0.385
UCUGUUAAUGCCUCUGAGUGUCCUACCUCCUUGGAGAUGAGAUAGGGAAGGAGCAGGGAUGAGACUGGCAAUGGUCACAGGGAAAGAUGUGGCCUUUUGUGAUGGUUUUA: 0.515
CCGGCCCCUGGCCCUGGGGAACAUCCCUAGAGGCCCAGAAUGGGGGUUGCUGGGUACCCCAUGCCCUGAGGGUUCCAGCACUGCUGCCAAGUGGCCUUGUCCCAGCUCCC: 0.231
UGACAAGAUUUUCUUGGAUUUUUUUUUUAUACGAAAAUCAAAAUUUCAAUCAGUCUCGUGCUCUGUCCCUUUACAUCGGUAUGCGACUAUUACAAUCACUGUGUGUGUGU: 0.24
CUCUUCAUUUCUUGAGGUUGGUAAAAUUAUCGAACAAAGUCCUAAUAUGCCCAAAACUCAGAUCUUUAGAAGUGAUCUUUCACUUGCUUAAUUGCAAAGUAGUUCAAAGC: 0.22
GAUCCGUCUCGGCUACUGCAGAGCACUGACUGCUCUGAGGAGAGGGAAGAGGGUCUGCUGGGGGUUCCUGUGGCCUUCCGCUGUGUCUGGACAACACUAACACAGGACCC: 0.383
AUCCACCCGCCUCACCCUCCCAAAAUGCUGGGAUUACAGGCGUAAGCCACUGCACCUGGCGGGGUCUUGCUUAUUUUAAAAGAAAUAUUCUGAUUCAUAUUUUAGGACUU: 0.509
GUAUUGAUGUCACUCUGGUGCCUUAGAAGUCAGUCGUCCUUGGGAAGGUGUCUGCGAGACUGGGCCCUUUCUUCUCUCCAGAGCAGGAUGCCUGGUGCUCUUGCUAUUCU: 0.321
GAAUGUAAUACUCAAACUCUCAGUGCUUCCUUAUAAUUUCUAAUAGAAUUUUUUAUUAUUGUUAUUAUUAUUGGGGUUUUUUUGGUUGGUUGGUUGGUUGGUCGGGUUUU: 1.05
AAACAUACCUUUUUCCUCUUUAAAAAAAAAGAUAUACUCAUUUUUUUAUUUUAUGUGUAUGACUGUUUGCCUACGUGUAUAUAUGUGCACCACCUGUGUGCCUGGUGUCU: 0.472
AUCAAGAGCUGCUGCUUCCCUUCCAGCCAGAAAAGUGGUAAGCGGAGCAAGUGCCAAGCAGAACAGACCUUAUCAUCUGGGUAACAGACUUCUCAGUGUUGGUGCUGUGU: 0.406

Block 4
Target: Sal-like protein 4, full length isoform A (SALL4, Homo sapiens, UniProt Q9UJQ4, residues 1-1053)
Chain of UniProt Q9UJQ4 (whole entry, looked up): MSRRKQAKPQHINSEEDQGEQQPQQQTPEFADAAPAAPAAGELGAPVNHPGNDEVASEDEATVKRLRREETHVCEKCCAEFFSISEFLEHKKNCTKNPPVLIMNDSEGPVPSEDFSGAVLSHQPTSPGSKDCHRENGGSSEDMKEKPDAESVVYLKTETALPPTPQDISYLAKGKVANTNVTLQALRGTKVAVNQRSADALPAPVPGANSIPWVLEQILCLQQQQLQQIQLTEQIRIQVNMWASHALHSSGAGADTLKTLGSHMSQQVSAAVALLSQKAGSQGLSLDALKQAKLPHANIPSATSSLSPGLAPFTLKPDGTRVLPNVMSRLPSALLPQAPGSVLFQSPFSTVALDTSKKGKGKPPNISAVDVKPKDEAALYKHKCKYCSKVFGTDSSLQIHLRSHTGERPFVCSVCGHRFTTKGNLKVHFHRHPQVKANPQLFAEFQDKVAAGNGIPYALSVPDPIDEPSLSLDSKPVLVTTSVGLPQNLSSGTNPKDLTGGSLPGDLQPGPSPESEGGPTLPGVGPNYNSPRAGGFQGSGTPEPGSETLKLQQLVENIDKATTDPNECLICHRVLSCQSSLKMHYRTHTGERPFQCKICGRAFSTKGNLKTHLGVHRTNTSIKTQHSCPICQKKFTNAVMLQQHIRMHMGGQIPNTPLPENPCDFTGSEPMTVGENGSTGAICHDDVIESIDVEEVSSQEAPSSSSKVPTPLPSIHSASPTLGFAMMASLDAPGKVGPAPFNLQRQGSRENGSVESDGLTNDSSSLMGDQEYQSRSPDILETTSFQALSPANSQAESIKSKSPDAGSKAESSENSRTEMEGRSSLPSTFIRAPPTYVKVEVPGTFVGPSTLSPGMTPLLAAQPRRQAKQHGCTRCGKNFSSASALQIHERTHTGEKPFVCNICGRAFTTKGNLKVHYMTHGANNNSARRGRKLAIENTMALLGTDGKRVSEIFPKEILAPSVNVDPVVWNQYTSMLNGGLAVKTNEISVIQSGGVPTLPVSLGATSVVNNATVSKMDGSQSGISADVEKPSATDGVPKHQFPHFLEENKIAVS
Technique: universal PBM
Molecule type: double-stranded DNA, one strand shown
Sample: in vitro
Concentration: 600 nM
Setting: 8-mer, flanks averaged, mean of replicates
Direction: higher = stronger binding
Measurement: E-score
CGCATCCG: -0.236
GCGCCCAC: -0.316
ACCTTTCA: -0.0614
AACTATAG: 0.266
CAAGAGCA: 0.0241
AGGTCTCG: -0.172
AGCCTCGA: -0.132
ACCACTAC: -0.0895
ACTTAGCC: -0.103
CTTCCCGA: -0.105
CGCTAACG: -0.0161
ATGGCGCA: -0.0957
CGTTGGCC: -0.27
GAATTACC: 0.179
TCGGCCGA: -0.111
CTAAAAAA: 0.328
CTGGGCCA: -0.288
CCGCGTAC: -0.196

Block 5
Target: RING finger protein unkempt homolog, zinc fingers 1-6, GST-SBP tag (UNK, Homo sapiens, UniProt Q9C0B0, residues 30-357)
Technique: RNA Bind-n-Seq
Molecule type: RNA
Sample: in vitro
Concentration: not given
Setting: RNA with constant flanks, human and mouse sites, ends assumed
Relative to: input RNA pool
Direction: higher = stronger binding
Measurement: bound/input enrichment
Shared flanks, not repeated: GGGAGUUCUACAGUCCGACGAUC … CAACAGAGGAUUGAGCAUCA
Construct (chain): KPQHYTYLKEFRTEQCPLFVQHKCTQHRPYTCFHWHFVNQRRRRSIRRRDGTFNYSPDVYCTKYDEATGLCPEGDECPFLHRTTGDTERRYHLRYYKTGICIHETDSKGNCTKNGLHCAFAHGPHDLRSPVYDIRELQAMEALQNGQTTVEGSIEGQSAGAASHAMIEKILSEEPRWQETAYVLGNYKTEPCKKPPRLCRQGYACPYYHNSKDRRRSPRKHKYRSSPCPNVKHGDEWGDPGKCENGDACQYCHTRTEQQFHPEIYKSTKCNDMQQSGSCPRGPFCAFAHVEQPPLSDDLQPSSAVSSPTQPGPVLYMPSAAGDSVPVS
AUAAAAUUAGAAACUUAAAUUCCAAGCUAAAUUUCAGCUUUGACCCACCUAACUCCAGUGAAUAGGUGGCAGCUCAGAAACAAGGACAGCACUGCUGCUGCCAGAGCAAGCUCACAUCCA: 7.13 ratio
AAGAAGUUCAAGGAAGUUGGAGAGGCCUUUACUAUCCUCUCUGAUCCCAAGAAAAAGACUCGCUAUGACAGUGGACAGGACCUAGAUGAGGAGGGCAUGAAUAUGGGUGAUUUUGAUCCA: 0.466 ratio
CAGCGUUGCCUCCCUGUCCUGGGCAGGGGCCACUUAUUAUUUUAUUUAUUUUUAAUUUAUAAUUUAUUCAAAUUGGAUUGCCUUGGUGACCUCCCAAACCUGAUAAUUGGCAUCACCCCA: 3.6 ratio
CAGAUGAUUCUUGACAAGAAAUUUCAUGGGAUUUUGGACCAGGGGGAGGGUGUCCUGAUUAUUUUCGAUGAACCCCCAGUAGAUAAAACUUACGAAGCUGCUCUGGAAACAAUUCAGAAC: 0.718 ratio
GAAUAUAUAGGUGAAGAAGAAGCUACAUUAGUUGAUUUUGUUUGUUCUAAGGUUAUGGCUCAUAGUUCACCCCAGAGCAUUUUAGAUGAUGUUGCCAUGGUACUUGAUGAAGAAGCAGAA: 3.39 ratio
AAGUCAGCAGCUGAGGUGGAGGAAGCACCUUCCCCUGAAGACAAUGUCUAUUUCGGAACUACUAGUGACGAUUCGGAUAUUGUUACACUUGAACCACCUAAGCUGGAAGAAAUGGGGAAC: 0.0941 ratio
AGCCUGUGUGUAAAAUCCAGCUUGACUGCACCCCCCCUUUUUUGUUUCACUGUUUUCUAGUUUAGAAAUCUCAGAACUAACUAAUUUUACAGAACUUUUCUUAAUUUGCUCAUCAUGUUU: 2.12 ratio
AUGUUAAGCCAUUCUUGAUUGGACCUCAUAGCUUAUUUUAGUUAAUCUUUUUUUUGUCUUUUAGCCUUACCACCUUUUAAAAAAUUUGUUAUUCUCCAGAAACAGUAAAUAGGUGAGUAG: 352 ratio
CUCCAGGUUCCAGUAAAAUUCUUCUGACCGAAACCAAUGUGGGUGUUAGAAAAAUUACCAUAUAGCUUAAUAUGUUUAUUAGUUCUCUUUGGAAAAAAACUACCACUGUGGUCUUAAAAG: 2.06 ratio
AUGGGCUUCAGUGUGGAAGAUGAGUUGCUUAAGAUAUGCUUUUAUACAACUGAUAAAAAUAUACGGGACUUUUUGGUUGAAAUUUUAAAAGAAAAGGAAUGUUUUUCUGAAAAAGAAAGA: 0.414 ratio
GUCAAUCAUUUUGACAAGUCUCCUGAAAGGAACAGCUAGCAGGAACUGAAACCUUUUUCCAUUUGGUCUCGUGGCAAAGGCAGAGAUUGCUCCAGCAGCUCCACACAAAAUGAUGUGCUC: 0.23 ratio

Block 6
Target: Ras GTPase-activating protein-binding protein 1, full length (G3BP1, Homo sapiens, UniProt Q13283)
Chain of UniProt Q13283 (whole entry, looked up): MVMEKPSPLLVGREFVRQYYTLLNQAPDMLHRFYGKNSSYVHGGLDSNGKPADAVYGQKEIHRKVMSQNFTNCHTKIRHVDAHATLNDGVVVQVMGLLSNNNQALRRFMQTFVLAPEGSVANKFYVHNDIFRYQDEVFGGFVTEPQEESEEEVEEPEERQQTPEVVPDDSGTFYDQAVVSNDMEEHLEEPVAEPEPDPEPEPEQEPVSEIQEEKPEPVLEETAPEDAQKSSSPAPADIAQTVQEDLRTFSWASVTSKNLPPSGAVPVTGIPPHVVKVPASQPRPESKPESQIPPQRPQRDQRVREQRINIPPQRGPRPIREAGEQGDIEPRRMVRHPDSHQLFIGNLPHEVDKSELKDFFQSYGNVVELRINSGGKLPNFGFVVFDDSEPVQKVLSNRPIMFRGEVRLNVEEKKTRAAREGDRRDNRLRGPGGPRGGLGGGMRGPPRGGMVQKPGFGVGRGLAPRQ
Technique: RNA Bind-n-Seq
Molecule type: RNA
Sample: in vitro
Concentration: 200 nM
Setting: whole 134-nt RNA, ends assumed
Together with: 150 mM LiCl
Relative to: input library
Direction: higher = stronger binding
Measurement: log2 enrichment
Each molecule: 7-deaza-guanosine replaces G
Shared flanks, not repeated: GGGAGUUCUACAGUCCGACGAUC … UGGAAUUCUCGGGUGUCAAGG
GCAGGAAGUAAAAACAAAUGGAAAUGCUUCUGAUAGUGGCAGGGGUGGGGGUUGCUAAGGAAAGGGUGGGAUGGGAGUGGGUAAAGAGUU: 0.324
UCCUGUGCUACACAUCGUAUGUACCGAAUCGGUUUUUUGGGGUUUUUUGGGGUUUUUUGGAAAGUAUUAUGUUACGCCGUUCGGAUCUGC: 0.991
CCUCAAGUCCUGUGCUACACAUCGUAUGUACCGAAUCGGAGGUGGAAAAAGGAAAGUAUUAUGUUACGCCGUUCGGAUCUGCACUUCCAG: -0.675
CUGUGCUACACAUCGUAUGUACCGAAUCGGGGAAAAAAAGGGGAAAAAGGGGAAAAAGGGGAAAGUAUUAUGUUACGCCGUUCGGAUCUG: 0.471
UCAAGUCCUGUGCUACACAUCGUAUGUACCGAAUCGGAAAGGAAAGGUUUUUGGAAAGUAUUAUGUUACGCCGUUCGGAUCUGCACUUCC: -0.388
UUGUGGAAAGGAGGAGAACCCCUGCUGAAAUUCGAGAGGAGUUUGAGCGGCUGCAGAGAGAGAGAGAAGAGAGGAGAUUGCAGCAGCGAA: -1.05
CGCAGACAACACGCACCCACACAGACACAGAGGGAAGGGGUUGGGAUGGGGACAGGGUGCACAGCAGGGCGGGGUAGGACCCCAGCCCCU: 0.293

Single results of other studies
PPARRRLRLSVDE  binding enrichment score (human cyclin B1; peptide binding, yeast competitive growth sequencing; peptide, Saccharomyces cerevisiae, cyclin B1-Cln2 fusion; concentration not given, RxL motif peptides; direction not given): 0.182

Some of these lines once more (block 5):
AGCCUGUGUGUAAAAUCCAGCUUGACUGCACCCCCCCUUUUUUGUUUCACUGUUUUCUAGUUUAGAAAUCUCAGAACUAACUAAUUUUACAGAACUUUUCUUAAUUUGCUCAUCAUGUUU: 2.12 ratio
AUGUUAAGCCAUUCUUGAUUGGACCUCAUAGCUUAUUUUAGUUAAUCUUUUUUUUGUCUUUUAGCCUUACCACCUUUUAAAAAAUUUGUUAUUCUCCAGAAACAGUAAAUAGGUGAGUAG: 352 ratio
CUCCAGGUUCCAGUAAAAUUCUUCUGACCGAAACCAAUGUGGGUGUUAGAAAAAUUACCAUAUAGCUUAAUAUGUUUAUUAGUUCUCUUUGGAAAAAAACUACCACUGUGGUCUUAAAAG: 2.06 ratio
AUGGGCUUCAGUGUGGAAGAUGAGUUGCUUAAGAUAUGCUUUUAUACAACUGAUAAAAAUAUACGGGACUUUUUGGUUGAAAUUUUAAAAGAAAAGGAAUGUUUUUCUGAAAAAGAAAGA: 0.414 ratio
